Published values from different studies.
Several values in a cell are separate wells, animals, samples, runs or records. Numbers after ± are the reported error.
Cell line: MCF7

SMILES | assay | setting | how to read | measurement | value
O=C(CCl)c1ccccc1Nc1cccc(C(F)(F)F)c1 | firefly luciferase reporter | 25 µM, 6 h | baseline: vehicle | TEAD reporter activity | 61.8 ± 4.1%
C=CCc1c(O)cc2c(c1O)C(=O)CC(c1ccc(O)cc1)O2 (centres unmarked) | cytotoxicity, MTT | 16.01 µM, 48 h | – | growth inhibition | -6.76%
COc1cc(/C=C/C(=O)/C=C(O)/C=C/c2ccc(OCC(=O)N3CCOCCOCCOCCOCCOCC3)c(OC)c2)ccc1OCC(=O)N1CCOCCOCCOCCOCCOCC1 | cell growth or viability, SRB | 25 µM | – | inhibition | 98.5%
Oc1ccnc(-c2cc(O)ccn2)c1.[Cl-].[Cl-].[Ru+2].c1ccc(-c2ccnc3c2ccc2c(-c4ccccc4)ccnc23)cc1.c1ccc(-c2ccnc3c2ccc2c(-c4ccccc4)ccnc23)cc1 | cell growth or viability | dark | – | EC50 | > 100 µM
C[C@@H]1CC[C@@H]([C@](O)(CNCc2ccccc2F)COCc2ccccc2)[C@H](OCc2ccccc2)C1 | cell growth or viability, MTT | 30 µM, 72 h | – | inhibition | 98.4%
CC(=NN=c1sc(C(=O)c2ccccc2)nn1-c1ccccc1)c1ccc(S(=O)(=O)N2CCC(C)CC2)cc1 | annexin V/PI | concentration not given, 72 h, at IC50 | – | total apoptotic cells | 14.3%
Cc1c(COc2cc(OCc3cccc(C#N)c3)c(CN3CCCC[C@@H]3C(=O)O)cc2Cl)cccc1-c1cccc(OCCCCCCC(=O)NO)c1 | flow cytometry | 20 µM, 48 h | baseline: control | PD-L1 expression | increased
CC(=O)[O][Pd][c]1cc(C)ccc1N1N=C(C)C(C)(C)C1=O.CC(=O)[O][Pd][c]1cc(C)ccc1N1N=C(C)C(C)(C)C1=O | JC-1 flow cytometry | 25 µM, 24 h | – | cells with decreased ΔΨm | 52.2 ± 5.01%
CC(C)C[C@@H](NC(=O)[C@H](C)NC(=O)CNC(=O)[C@@H](NC=O)C(C)C)C(=O)N[C@@H](C)C(=O)N[C@@H](C(=O)N[C@H](C(=O)N[C@@H](C(=O)N[C@@H](Cc1c[nH]c2ccccc12)C(=O)N[C@H](CC(C)C)C(=O)N[C@@H](Cc1c[nH]c2ccccc12)C(=O)N[C@H](CC(C)C)C(=O)N[C@@H](Cc1c[nH]c2ccccc12)C(=O)N[C@H](CC(C)C)C(=O)N[C@@H](Cc1c[nH]c2ccccc12)C(=O)NCCO)C(C)C)C(C)C)C(C)C | flow cytometry | 500 nM, 48 h | – | cells in G2/M phase | 24.9 ± 0.67%
CSC(=S)N/N=C(\C)c1ccc(S(=O)(=O)N2CCC(C)CC2)cc1 | flow cytometry | 4.29 µM (IC50), 72 h | – | cells in G0/G1 phase | 34.9%
COCCCCCNc1nc(NCCCCCCN(C)C)c2cc(NC(=O)/C=C/CN(C)C)ccc2n1 | CellTiter-Glo | 1.562 µM, 72 h, unit not given | baseline: DMSO-treated cells | viability | 0.882 and 0.917
C[C@@H]1CC[C@@H]([C@](O)(COCc2ccccc2)Cn2cnc3ccccc32)[C@H](OCc2ccccc2)C1 | cell growth or viability, MTT | 30 µM, 72 h | – | inhibition | 95.7%
CCCCCCCCCCCCNC(=S)NCCCC[C@H](NS(C)(=O)=O)C(=O)N[C@H](C)C(=O)N[C@@H](CCCNC(=N)N)C(N)=O | cell growth or viability, MTT | 72 h | – | EC50 | 31.9 to 53.3 µM
O=C1CC[C@H](N2Cc3cc(N4CCN(CC5CCN(c6ccc([C@@H]7c8ccc(O)cc8CC[C@@H]7c7ccccc7)cc6)CC5)CC4)ccc3C2=O)C(=O)N1 | cell growth, CellTiter-Glo | 120 h | – | GI50 | 0.0023 µM
COc1ccc(CNC[C@@](O)(COCc2ccc(OC)cc2)[C@@H]2CC[C@@H](C)C[C@H]2OCc2ccc(OC)cc2)cc1 | cell growth or viability, MTT | 30 µM, 72 h | – | inhibition | 99%
Nc1cc2cccnc2c2ncccc12.[Cl-].[Cl-].[Ru+2].c1cnc2c(c1)ccc1cccnc12.c1cnc2c(c1)ccc1cccnc12 | MTT | – | baseline: IC50 dark over light | phototoxicity index | > 9
CC(=O)[O][Pd][c]1ccccc1-n1nc(C)cc1C.CC(=O)[O][Pd][c]1ccccc1-n1nc(C)cc1C | PI flow cytometry | 25 µM, 24 h | – | S phase cells | 40.5 ± 1.63%
CCC(=CCc1c(O)cc2c(c1O)C(=O)CC(c1ccc(OC)c(O)c1)O2)CC (centres unmarked) | cytotoxicity, MTT | 50.19 µM, 48 h | – | growth inhibition | 89.5%
COc1cccc(CNC[C@@](O)(COCc2ccccc2)[C@@H]2CC[C@@H](C)C[C@H]2OCc2ccccc2)c1 | cell growth or viability, MTT | 30 µM, 72 h | – | inhibition | 95.3%

SMILES | assay | setting | how to read | measurement | value
Cc1ccc2c(Cl)cc(Cl)c([O-])c2n1.Cc1ccc2c(Cl)cc(Cl)c([O-])c2n1.[Co+2].c1cnc2c(c1)ccc1cccnc12 | cell growth or viability, MTT | 48 h | – | IC50 | 7.22 µM
COc1ccc(C2CC(=O)c3c(cc(O)c(CC=C(C)C)c3O)O2)cc1 (centres unmarked) | cytotoxicity, MTT | 28.22 µM, 48 h | – | growth inhibition | 1.64%
COC(=O)c1cc(NC2=NC(=O)C(=Cc3ccc(C)cc3)S2)ccc1OC(C)=O | GC-MS, refers to: L-Valine | 1 µM | baseline: DMSO | metabolite level | 0.01 fold change
CCC(=CCc1c(O)cc2c(c1O)C(=O)CC(c1ccc(O)cc1)O2)CC (centres unmarked) | cytotoxicity, MTT | 13.57 µM, 48 h | – | growth inhibition | 41.4%
CCn1c(-c2ccccc2)cs/c1=N/N=C(\C)c1c(O)c2ccccc2oc1=O | cell growth, MTT | – | baseline: IC50 BJ-1 over MCF7 | selectivity index | > 3.86
CSC(=NN=C(C)c1ccc(S(=O)(=O)N2CCC(C)CC2)cc1)N(C)C | flow cytometry | 4.29 µM (IC50), 72 h | – | cells in S phase | 30.2%
CC(=O)[O][Pd][c]1ccccc1N1N=C(C)C(C)(C)C1=O.CC(=O)[O][Pd][c]1ccccc1N1N=C(C)C(C)(C)C1=O | FLICA flow cytometry | 25 µM, 24 h | – | caspase-9 active cells | 29.6 ± 0.8%
C[C@@H]1CC[C@@H]([C@@](O)(CNCc2ccc(F)cc2)COCc2ccc(F)cc2)[C@H](OCc2ccc(F)cc2)C1 | cell growth or viability, MTT | 10 µM, 72 h | – | inhibition | 96.4%
CC[C@@H]([C@H](C)c1ccc(O)cc1)[C@@H](CC)c1ccc(O)cc1 | cell growth or viability, ATP luminescence | 5 days | – | EC50 | 0.019 µM
CCC(=CCc1c(O)cc2c(c1O)C(=O)CC(c1cccc(O)c1)O2)CC (centres unmarked) | cytotoxicity, MTT | 1.696 µM, 48 h | – | growth inhibition | 11.8%
COC(=O)c1cc(NC2=NC(=O)C(=Cc3ccc(N(C)C)cc3)S2)ccc1OC(C)=O | GC-MS, refers to: Stearic acid | 1 µM | baseline: DMSO | metabolite level | 0.54 fold change
CCC(=CCc1c(O)cc2c(c1O)C(=O)CC(c1ccccc1O)O2)CC (centres unmarked) | cytotoxicity, MTT | 54.29 µM, 48 h | – | growth inhibition | 31.7%
C[C@@H]1Cc2c([nH]c3ccccc23)[C@@H](c2c(F)cc(/C=C/C(=O)O)cc2F)N1C12CC(C1)C2 | RNA-seq, refers to: RAPGEFL1 mRNA | 1 µM, 24 h, E2-induced gene | baseline: DMSO vehicle | log2 fold change | -1.41
COc1ccc(CNC[C@@](O)(COCc2ccccc2)[C@@H]2CC[C@@H](C)C[C@H]2OCc2ccccc2)cc1 | cell growth or viability, MTT | 30 µM, 72 h | – | inhibition | 93.9%
CCN(C(=O)c1cc(F)ccc1Oc1nncnc1N1CCC2(C1)CN([C@H](CCCN(C)CCOC)C(C)C)C2)C(C)C | cell growth or viability | 7 days | – | GI50 | > 10 µM
COc1ccccc1CNC[C@](O)(COCc1ccccc1)[C@@H]1CC[C@@H](C)C[C@H]1OCc1ccccc1 | cell growth or viability, MTT | 30 µM, 72 h | – | inhibition | 84.5%
Cc1c(COc2cc(OCc3cccc(C#N)c3)c(CNC(CO)(CO)CO)cc2Cl)cccc1-c1cccc(OCCCCCC(=O)NO)c1 | annexin V-FITC/PI flow cytometry | 5 µM, 48 h, early plus late apoptosis | – | apoptotic cells | 29.4%
CCCCCCCCCCCCNC(=S)NCCCC[C@H](NC(=O)OCc1ccccc1)C(=O)N[C@H](C)C(=O)N[C@@H](CCCNC(=N)N)C(N)=O | cell growth or viability, MTT | 72 h | – | EC50 | 28.7 to 45.6 µM
C[C@@H]1CC[C@@H]([C@@](O)(CNCc2cccc(F)c2)COCc2ccccc2)[C@H](OCc2ccccc2)C1 | cell growth or viability, MTT | 10 µM, 72 h | – | inhibition | 95.7%

A few entries again:
SMILES | assay | setting | how to read | measurement | value
Nc1cc2cccnc2c2ncccc12.[Cl-].[Cl-].[Ru+2].c1cnc2c(c1)ccc1cccnc12.c1cnc2c(c1)ccc1cccnc12 | MTT | – | baseline: IC50 dark over light | phototoxicity index | > 9
CC(=O)[O][Pd][c]1ccccc1-n1nc(C)cc1C.CC(=O)[O][Pd][c]1ccccc1-n1nc(C)cc1C | PI flow cytometry | 25 µM, 24 h | – | S phase cells | 40.5 ± 1.63%
CCC(=CCc1c(O)cc2c(c1O)C(=O)CC(c1ccc(OC)c(O)c1)O2)CC (centres unmarked) | cytotoxicity, MTT | 50.19 µM, 48 h | – | growth inhibition | 89.5%
COc1cccc(CNC[C@@](O)(COCc2ccccc2)[C@@H]2CC[C@@H](C)C[C@H]2OCc2ccccc2)c1 | cell growth or viability, MTT | 30 µM, 72 h | – | inhibition | 95.3%
Cc1ccc2c(Cl)cc(Cl)c([O-])c2n1.Cc1ccc2c(Cl)cc(Cl)c([O-])c2n1.[Co+2].c1cnc2c(c1)ccc1cccnc12 | cell growth or viability, MTT | 48 h | – | IC50 | 7.22 µM
COc1ccc(C2CC(=O)c3c(cc(O)c(CC=C(C)C)c3O)O2)cc1 (centres unmarked) | cytotoxicity, MTT | 28.22 µM, 48 h | – | growth inhibition | 1.64%
